# Published values of several laboratories.
# Numbered parts are unrelated; each lists some results of a single study. Several values in a cell are separate wells, animals, samples, runs or records.
# Sequence of UniProt Q16853 (whole entry, looked up): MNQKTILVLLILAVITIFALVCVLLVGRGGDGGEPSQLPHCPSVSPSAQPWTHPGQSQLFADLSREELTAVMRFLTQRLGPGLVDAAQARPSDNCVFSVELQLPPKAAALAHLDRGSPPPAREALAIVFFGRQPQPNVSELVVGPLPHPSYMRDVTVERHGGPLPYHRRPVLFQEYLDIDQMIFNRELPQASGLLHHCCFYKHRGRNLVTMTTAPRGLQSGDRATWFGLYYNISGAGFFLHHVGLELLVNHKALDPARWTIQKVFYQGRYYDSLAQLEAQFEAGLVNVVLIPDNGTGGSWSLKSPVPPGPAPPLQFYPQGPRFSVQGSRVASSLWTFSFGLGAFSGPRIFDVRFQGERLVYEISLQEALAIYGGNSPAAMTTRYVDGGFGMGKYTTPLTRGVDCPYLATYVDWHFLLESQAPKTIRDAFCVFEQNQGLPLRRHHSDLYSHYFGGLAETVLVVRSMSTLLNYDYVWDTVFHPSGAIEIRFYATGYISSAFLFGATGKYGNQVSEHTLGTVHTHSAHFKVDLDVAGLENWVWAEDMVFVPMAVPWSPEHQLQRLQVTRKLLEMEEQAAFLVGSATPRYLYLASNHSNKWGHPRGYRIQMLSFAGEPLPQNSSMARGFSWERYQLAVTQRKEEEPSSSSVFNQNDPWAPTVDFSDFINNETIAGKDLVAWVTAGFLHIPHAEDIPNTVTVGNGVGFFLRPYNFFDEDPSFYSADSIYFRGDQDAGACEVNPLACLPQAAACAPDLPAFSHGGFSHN
# Sequence of UniProt P24723 (whole entry, looked up): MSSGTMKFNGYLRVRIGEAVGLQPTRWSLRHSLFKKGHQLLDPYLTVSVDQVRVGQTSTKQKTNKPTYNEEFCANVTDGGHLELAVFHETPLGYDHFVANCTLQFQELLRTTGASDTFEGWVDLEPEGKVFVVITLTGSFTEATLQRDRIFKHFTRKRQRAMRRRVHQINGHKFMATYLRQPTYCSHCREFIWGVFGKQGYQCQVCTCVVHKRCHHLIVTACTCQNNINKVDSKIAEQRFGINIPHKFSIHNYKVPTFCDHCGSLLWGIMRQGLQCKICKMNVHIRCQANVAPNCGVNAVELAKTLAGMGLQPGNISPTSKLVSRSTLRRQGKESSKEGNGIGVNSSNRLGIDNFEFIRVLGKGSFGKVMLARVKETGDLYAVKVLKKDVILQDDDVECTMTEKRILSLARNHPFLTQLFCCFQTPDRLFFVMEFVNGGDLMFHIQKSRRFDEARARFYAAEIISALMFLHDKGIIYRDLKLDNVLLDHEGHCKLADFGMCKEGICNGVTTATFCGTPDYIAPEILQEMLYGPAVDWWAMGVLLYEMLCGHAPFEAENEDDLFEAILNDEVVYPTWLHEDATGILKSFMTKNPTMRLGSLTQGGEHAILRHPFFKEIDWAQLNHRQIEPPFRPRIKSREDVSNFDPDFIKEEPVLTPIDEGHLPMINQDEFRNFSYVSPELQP
# Sequence of UniProt P51817 (whole entry, looked up): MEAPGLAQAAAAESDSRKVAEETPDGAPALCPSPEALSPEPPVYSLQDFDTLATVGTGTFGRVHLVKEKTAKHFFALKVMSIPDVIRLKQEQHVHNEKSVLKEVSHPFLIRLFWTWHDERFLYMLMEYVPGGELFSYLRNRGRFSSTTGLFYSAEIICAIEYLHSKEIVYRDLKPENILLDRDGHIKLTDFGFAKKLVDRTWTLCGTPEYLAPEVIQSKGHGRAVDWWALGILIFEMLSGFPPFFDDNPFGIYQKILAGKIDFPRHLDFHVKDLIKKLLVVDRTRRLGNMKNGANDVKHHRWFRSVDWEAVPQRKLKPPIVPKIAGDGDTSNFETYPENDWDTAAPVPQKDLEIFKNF
# Sequence of UniProt Q8TF76 (whole entry, looked up): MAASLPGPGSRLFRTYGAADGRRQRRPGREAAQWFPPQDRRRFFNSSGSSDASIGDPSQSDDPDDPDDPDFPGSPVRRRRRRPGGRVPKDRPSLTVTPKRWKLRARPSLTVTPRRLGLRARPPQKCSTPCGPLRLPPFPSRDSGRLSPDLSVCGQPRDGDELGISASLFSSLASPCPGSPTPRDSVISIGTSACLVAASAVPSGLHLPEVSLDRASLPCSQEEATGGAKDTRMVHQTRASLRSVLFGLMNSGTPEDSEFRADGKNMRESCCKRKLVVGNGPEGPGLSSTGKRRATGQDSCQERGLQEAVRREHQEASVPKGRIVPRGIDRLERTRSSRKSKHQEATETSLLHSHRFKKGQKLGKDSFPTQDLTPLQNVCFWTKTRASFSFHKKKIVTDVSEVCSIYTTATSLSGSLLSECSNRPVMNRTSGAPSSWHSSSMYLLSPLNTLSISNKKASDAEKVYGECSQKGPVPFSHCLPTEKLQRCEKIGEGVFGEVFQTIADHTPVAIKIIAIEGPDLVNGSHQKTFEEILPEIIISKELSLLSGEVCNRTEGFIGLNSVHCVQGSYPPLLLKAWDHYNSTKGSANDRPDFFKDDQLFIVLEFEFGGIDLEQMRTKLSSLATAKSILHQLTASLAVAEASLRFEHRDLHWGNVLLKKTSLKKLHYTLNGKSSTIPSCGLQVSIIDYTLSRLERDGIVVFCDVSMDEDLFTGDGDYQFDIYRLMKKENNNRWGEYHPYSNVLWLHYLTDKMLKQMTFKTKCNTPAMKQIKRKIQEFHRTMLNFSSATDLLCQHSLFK
# Sequence of UniProt Q8TBX8 (whole entry, looked up): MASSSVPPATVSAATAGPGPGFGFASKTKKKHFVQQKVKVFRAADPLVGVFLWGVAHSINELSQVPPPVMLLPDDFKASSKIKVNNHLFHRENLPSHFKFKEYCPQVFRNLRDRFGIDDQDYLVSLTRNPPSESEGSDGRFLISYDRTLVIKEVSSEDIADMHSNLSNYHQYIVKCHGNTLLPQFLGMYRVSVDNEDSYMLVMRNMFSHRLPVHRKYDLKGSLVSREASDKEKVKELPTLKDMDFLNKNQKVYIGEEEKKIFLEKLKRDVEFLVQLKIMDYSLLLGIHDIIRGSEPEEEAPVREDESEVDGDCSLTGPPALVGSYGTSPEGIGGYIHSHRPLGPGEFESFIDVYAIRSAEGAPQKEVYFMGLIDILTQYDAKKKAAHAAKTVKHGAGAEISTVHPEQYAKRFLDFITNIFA

# Study 1 — route: oral
# SMILES: CC(C)C[C@@H]1NC(=O)[C@@H](N(C)C(=O)[C@@H](NC(=O)[C@@H]2C[C@@H](F)CN2C(=O)C2(C(F)(F)F)CC(F)(F)C2)C2CC2)CCCCCCCN(C)C(=O)[C@H](Cc2cc(Cl)cnc2OC2CC2)N(C)C1=O
host,dose,time,tumour volume
"NSG mice, sample B SCLC PDX",100 mg/kg twice daily,day 1,229 mm3 and 158 mm3 and 272 mm3 and 202 mm3
"mouse, sample A SCLC PDX",100 mg/kg three times daily,day 21,373 mm3 and 199 mm3 and 192 mm3 and 306 mm3
"mouse, sample A SCLC PDX",100 mg/kg three times daily,day 25,214 mm3 and 216 mm3 and 211 mm3 and 377 mm3
"NSG mice, sample B SCLC PDX",100 mg/kg twice daily,day 8,296 mm3 and 189 mm3 and 185 mm3 and 263 mm3 and 221 mm3
"NSG mice, sample B SCLC PDX",100 mg/kg twice daily,day 29,243 mm3 and 249 mm3 and 319 mm3 and 416 mm3 and 390 mm3
"NSG mice, sample B SCLC PDX",100 mg/kg twice daily,day 19,229 mm3 and 226 mm3 and 231 mm3 and 300 mm3
"NSG mice, sample B SCLC PDX",100 mg/kg twice daily,day 22,310 mm3 and 276 mm3 and 364 mm3 and 221 mm3 and 209 mm3

# Study 2 — Structure (SMILES): O=C(Nc1ccccc1)Nc1cccc(Oc2ccc3nccn3n2)c1; tested at: 1 µM
target,setting,remaining activity [%]
"RPS6KA5 (Homo sapiens, UniProt O75582)",kinase domain 1 N-terminal,100
"PRKCH (Homo sapiens, UniProt P24723)",,100
"PIP4K2C (Homo sapiens, UniProt Q8TBX8)",PIP5K2C construct,52
"WNK1 (Homo sapiens, UniProt Q9H4A3)",,100
"PRKX (Homo sapiens, UniProt P51817)",,100
"HASPIN (Homo sapiens, UniProt Q8TF76)",,96
"PRKD2 (Homo sapiens, UniProt Q9BZL6)",,93
"BRSK2 (Homo sapiens, UniProt Q8IWQ3)",,100

# Study 3 — mode: degrader; method: HiBiT; cell line: HEK293
# Compound: Cn1cc(-c2cccc(CN3CCC4(CC3)COc3c4ccc4c3CN(C3CCC(=O)NC3=O)C4=O)c2)cn1 (stereo not shown)
# Target: CRBN/Zinc finger protein Helios (Homo sapiens, UniProt Q96SW2+Q9UKS7)
# Sequence of UniProt Q9UKS7 (whole entry, looked up): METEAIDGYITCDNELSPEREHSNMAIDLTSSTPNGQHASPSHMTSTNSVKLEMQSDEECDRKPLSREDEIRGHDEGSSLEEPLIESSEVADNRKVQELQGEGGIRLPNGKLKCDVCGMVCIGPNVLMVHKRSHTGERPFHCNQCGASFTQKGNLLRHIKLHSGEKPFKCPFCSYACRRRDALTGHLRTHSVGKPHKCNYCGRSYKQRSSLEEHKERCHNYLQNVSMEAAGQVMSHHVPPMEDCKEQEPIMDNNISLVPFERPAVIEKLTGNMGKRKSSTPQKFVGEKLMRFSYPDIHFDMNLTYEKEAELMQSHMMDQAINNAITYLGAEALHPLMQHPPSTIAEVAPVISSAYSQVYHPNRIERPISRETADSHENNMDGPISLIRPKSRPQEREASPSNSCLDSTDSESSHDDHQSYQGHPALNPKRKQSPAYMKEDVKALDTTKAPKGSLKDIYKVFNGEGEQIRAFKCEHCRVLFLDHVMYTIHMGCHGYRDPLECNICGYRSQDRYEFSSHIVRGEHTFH
# Sequence of UniProt Q96SW2 (whole entry, looked up): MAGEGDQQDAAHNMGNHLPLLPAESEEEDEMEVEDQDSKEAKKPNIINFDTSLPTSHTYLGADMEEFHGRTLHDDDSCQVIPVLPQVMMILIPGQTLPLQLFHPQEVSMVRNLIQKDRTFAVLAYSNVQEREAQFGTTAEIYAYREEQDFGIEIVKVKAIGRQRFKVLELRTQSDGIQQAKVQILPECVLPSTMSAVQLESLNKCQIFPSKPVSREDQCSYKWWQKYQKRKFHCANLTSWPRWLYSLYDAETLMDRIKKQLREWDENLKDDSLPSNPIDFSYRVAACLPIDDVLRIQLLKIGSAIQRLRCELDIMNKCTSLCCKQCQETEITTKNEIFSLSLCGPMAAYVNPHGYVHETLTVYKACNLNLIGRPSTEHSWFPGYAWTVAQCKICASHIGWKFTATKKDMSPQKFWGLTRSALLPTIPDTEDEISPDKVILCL
tested at,protein remaining [%]
4.115 nM,27.2
0.05081 nM,112
1.372 nM,53.5
0.1524 nM,99.8
1000 nM,12.1
111.1 nM,10.5

# Other studies, line by line — read-out: enzyme activity
# MPO: Myeloperoxidase (MPO, Homo sapiens, UniProt P05164)
# Sequence of UniProt P05164 (whole entry, looked up): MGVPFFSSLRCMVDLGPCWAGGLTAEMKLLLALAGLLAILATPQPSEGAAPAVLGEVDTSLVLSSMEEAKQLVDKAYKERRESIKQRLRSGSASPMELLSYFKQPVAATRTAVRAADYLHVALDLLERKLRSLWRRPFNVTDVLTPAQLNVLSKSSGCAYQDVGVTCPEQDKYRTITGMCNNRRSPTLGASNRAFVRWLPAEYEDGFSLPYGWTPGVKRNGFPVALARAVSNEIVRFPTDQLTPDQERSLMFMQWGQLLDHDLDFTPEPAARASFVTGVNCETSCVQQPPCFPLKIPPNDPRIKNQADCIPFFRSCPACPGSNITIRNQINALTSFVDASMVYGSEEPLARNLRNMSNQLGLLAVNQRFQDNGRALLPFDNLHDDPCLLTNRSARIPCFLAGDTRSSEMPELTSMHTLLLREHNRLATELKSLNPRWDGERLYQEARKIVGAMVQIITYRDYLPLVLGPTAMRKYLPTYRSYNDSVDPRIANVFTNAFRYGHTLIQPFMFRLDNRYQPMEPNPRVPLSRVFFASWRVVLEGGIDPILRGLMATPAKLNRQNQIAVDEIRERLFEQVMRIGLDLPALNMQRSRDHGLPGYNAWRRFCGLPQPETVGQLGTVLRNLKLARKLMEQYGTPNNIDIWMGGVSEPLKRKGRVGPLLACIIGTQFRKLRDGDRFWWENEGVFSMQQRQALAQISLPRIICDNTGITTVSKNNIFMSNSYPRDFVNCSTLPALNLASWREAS
SMILES,target,mode,method,tested at,setting,measurement,result
O=c1[nH]c(=S)n(C[C@H]2CCCO2)c2nc[nH]c12,MPO,,,0.0005 µM,,inhibition,16.3% and -9.07% and -13.4% and -14% and -2.59% and -3.09%
NC/C(=C\F)COc1cccc(Cn2c(=S)[nH]c(=O)c3[nH]ccc32)c1,"AOC3 (Homo sapiens, UniProt Q16853)",inhibitor,fluorescence,200 pM,,inhibition,4.3% and -4.99%
CS(=O)(=O)c1ccc(OC/C(=C/F)CN)cc1.Cl,"Amine oxidase [copper-containing] 3 (Rattus norvegicus, UniProt O08590)",,,concentration not given,rat enzyme,activity response,88.2%
NC/C(=C\F)COc1cc(Cn2c(=S)[nH]c(=O)c3[nH]cnc32)cc(C(F)(F)F)c1,MPO,inhibitor,fluorescence,1.5 nM,,inhibition,2.21%
